Assay results from different studies.
Each line is one published result; not all experiments were run side by side. Several values in a cell are separate wells, animals, samples, runs or records. ± gives the spread as reported. ≈ marks a conversion by molar mass, not a printed value.
GBA1 R534H: Lysosomal acid glucosylceramidase (GBA1, Homo sapiens, UniProt P04062, R534H)
Sequence of UniProt P04062 (whole entry, unmodified, looked up): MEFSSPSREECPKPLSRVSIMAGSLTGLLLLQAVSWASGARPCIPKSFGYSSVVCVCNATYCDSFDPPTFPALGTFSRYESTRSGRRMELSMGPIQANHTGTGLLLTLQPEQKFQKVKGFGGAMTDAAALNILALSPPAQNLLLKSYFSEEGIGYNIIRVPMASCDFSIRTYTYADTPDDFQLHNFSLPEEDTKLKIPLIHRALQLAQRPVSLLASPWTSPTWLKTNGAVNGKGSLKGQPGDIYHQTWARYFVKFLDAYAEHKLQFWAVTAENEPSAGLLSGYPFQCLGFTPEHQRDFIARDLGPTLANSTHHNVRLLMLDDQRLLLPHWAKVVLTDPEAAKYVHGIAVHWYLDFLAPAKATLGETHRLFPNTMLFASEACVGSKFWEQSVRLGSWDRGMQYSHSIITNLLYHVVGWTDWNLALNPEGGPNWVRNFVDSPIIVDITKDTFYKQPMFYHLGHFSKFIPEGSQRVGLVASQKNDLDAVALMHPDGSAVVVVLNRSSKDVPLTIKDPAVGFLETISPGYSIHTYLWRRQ

CO[C@@H]1[C@@H](OC(=O)c2ccc(C)[nH]2)[C@@H](O)[C@H](Oc2ccc3c(O)c(NC(=O)c4c[nH]c(C(=O)Nc5c(O)c6ccc(O[C@@H]7OC(C)(C)[C@H](OC)[C@@H](OC(=O)c8ccc(C)[nH]8)[C@H]7O)c(C)c6oc5=O)c4C)c(=O)oc3c2C)OC1(C)C
cell number (HaCaT Tet-On cells, doxycycline-induced; 7.5 µM): 18%

COc1ccc(NC(=O)c2ccc3[nH]c(-c4ccc(N(C)C)cc4)nc3c2)cn1
dead cell to confluence ratio (HCEC-hTERT; IncuCyte; concentration not given, 2 h): 2.13 and 1.72 and 1.97

COC(=O)c1cc(NC2=NC(=O)C(=Cc3ccc(N(C)C)cc3)S2)ccc1OC(C)=O
metabolite level (MCF7; GC-MS, refers to: Arachidonic acid; 1 µM; reference: DMSO): -0.22 fold change

O=S(=O)(c1ccc2c(c1)OCO2)n1cc(CCCCN2CCC(=C(c3ccc(F)c(F)c3)c3ccc(F)c(F)c3)CC2)nn1
protein abundance (B16-F10-luc2; TMT proteomics, refers to: RhoA, THUMPD3, S100A11, STMN2, SRGAP2; 5 µM, 2 h): decreased

Nc1cc2cccnc2c2ncccc12.[Cl-].[Cl-].[Ru+2].c1cnc2c(c1)ccc1cccnc12.c1cnc2c(c1)ccc1cccnc12
trypsin resistance improvement (PC-3; 10 µM, 24 h preincubation, 30 min irradiation; reference: untreated irradiated cells): ~40%

[Cl-].[Cl-].[Ru+2].c1ccc(-c2ccccn2)nc1.c1ccc(-c2ccccn2)nc1.c1ccc2cc3nc4c5cccnc5c5ncccc5c4nc3cc2c1
TGI (SK-MEL-28; cell growth, SRB; green light 523 nm, normoxia): 0.649 µM

C=CC(=O)N1[C@@H](c2ccc3c(c2)OCO3)c2[nH]c3ccccc3c2C[C@H]1C(=O)NC1CC1
neuron degeneration (rat DRG neurons; 0.04115 µM, 48 h, added: vincristine 40 nM): 86.5% and 90%

COc1cc(N2CCOCC2)ccc1Nc1ncc(Cl)c(Nc2ccccc2NS(C)(=O)=O)n1
phosphorylation (PC-9 del19/T790M/C797S; inhibitor, western blot, refers to: EGFR, AKT, ERK; concentration not given, 5 h): inhibited

COc1cccc(OC)c1-c1cc(C(=O)NC2(C(=O)O)C3CC4CC(C3)CC2C4)nn1-c1ccc(C(=O)N(C)CCCN(C)C(=O)[C@H](CCCCNC(=O)[C@H](CC(C)C)NC(=O)C2OC2C(=O)O)NC(=O)CN2CCN(CC(=O)[O-])CCN(CC(=O)[O-])CCN(CC(=O)[O-])CC2)cc1C(C)C.[177Lu+3] (mixture of isomers)
internalized fraction (HT-29; concentration not given, 30 min; reference: added activity): 4.2 ± 0.23%

COc1ccc2c(c1)C(n1nnc3ccccc31)C1=C(CCCC1=O)O2 (stereo not shown)
IC20 (3T3-L1; cell growth or viability, MTT; 72 h): 24.7 µg/mL (≈ 71.1 µM)

O=C(C[Se]C(=O)c1cccnc1Nc1cccc(C(F)(F)F)c1)Nc1cccc(C(F)(F)F)c1
GI50 (NCI60 CNS cancer panel; five-dose screen): 1.82 µM

CCOc1cncc(-c2ccc(NC(=O)C3(c4ccnc(NS(=O)(=O)C5CC5)n4)CCOCC3)nc2)n1
IC50 (colon cancer; cell viability, CellTiter-Glo; DMSO 0.1%; 72 h, line code 280): 0.085 µM

Cc1cc(NC(=O)C23CC4CC(C2)CC(n2cnc([N+](=O)[O-])n2)(C4)C3)no1
relative translation (Trypanosoma cruzi; reporter mRNA translation, inhibitor, refers to: capped polyadenylated Renilla luciferase mRNA; cell-free extract; concentration not given; reference: control RNA): 113%

Cn1c(=O)n(C2CCC(=O)NC2=O)c2ccc(C3CCN(CC(=O)Nc4cccc(CS(=O)(=O)N5CC[C@H](Nc6cccc(-c7sc(C(=O)O)c(OCC(=O)O)c7Cl)c6)CC5(C)C)c4)CC3)cc21 (stereo partly shown)
fold change (B16-F10; HTRF, refers to: phospho-STAT1 Tyr701; 0.123 µM, added: IFN-γ; reference: DMSO): 5.65 and 5.44 and 5.2 and 5.37 and 5.21 and 5.17

Cn1ncc(-c2ccc3c(=O)[nH]nc(CN)c3c2)c1-c1c(F)c(Cl)cc(OC2CC2)c1C#N
IC50 (HCC1806; cell viability, inhibitor, CellTiter-Glo; 120 h, baseline-subtracted): 2.99 µM

CNS(=O)(=O)Nc1nccc(Cc2c(C)c3ccc(Oc4ncccc4F)cc3oc2=O)c1F
IC50 (KNS-81; cell viability, CellTiter-Glo; 7 days): > 1 µM

CN1CCCNC(=O)c2cccc(c2)C(=O)NCCCN(C)CCCNc2cccc3c2C(=O)c2cccc(c2C3=O)NCCC1
log2 fold change (SAS; RNA-Seq, refers to: MCMBP mRNA; 1 µM, 6 h; reference: untreated cells): -0.483

Clc1ccc(Cn2cc(-c3ccccc3)[n+]3c2CCC3)cc1Cl.[Cl-]
translation activity (Trypanosoma cruzi; reporter mRNA translation, inhibitor, refers to: Renilla luciferase mRNA; cell-free extract; concentration not given, test 2; reference: positive over negative control): 100% and 128%

C=C1C(=O)OC2C1CCC(C)(O)C13C=CC(C)(C21)C1(C3)C(=O)OC2C3C(C)=CCC3C(C)(O)CC(O)C21 (stereo not shown)
maximum inhibition (AML12 mouse hepatocytes; lipid accumulation, Nile Red staining; maximum safe concentration, 24 h, added: palmitic acid/oleic acid): 33.8 ± 2.59%

Cn1ncc2cc(-c3cncc(Cl)c3N3CCC4(CCNC4=O)CC3)ccc21
log2 fold change (LS174T; gene expression, microarray, refers to: INHBB mRNA; concentration not given, 24 h; reference: untreated cells): 2.14

Cc1cc(Cl)cc(-c2ccnc3cc(CN4C(=O)C5C(C4=O)C5(C)C)sc23)c1C[C@@H]1CNCCO1 (stereo partly shown)
cells in G2/M phase (CHP-212 parental (wild-type USP7); PI flow cytometry; 0.3 µM, 24 h): 15.5% and 13.9% and 13.5%

Cc1cc(NC2CCN(C)CC2)ccc1-c1cc2c(N3CCC[C@H](C(=O)N[C@H](C)c4ccccc4)C3)ncnc2[nH]1
inhibition (KARPAS-299; cell growth or viability, MTT; 0.2 µg/mL, 72 h): 68.8%

OC[C@H]1[C@@H](O)[C@H](O)[C@@H](O)CN1CCCCCOCc1ccccc1-c1ccccc1
IC50 (GBA1 R534H; inhibitor, 4MU-β-D-glucopyranoside; added: 4MU-β-D-glucopyranoside): 15 µM

COc1cc(N2CCN(C(=O)C3CCCN3)CC2)ccc1Nc1ncc(Cl)c(Nc2ccccc2P(C)(C)=O)n1 (stereo not shown)
late apoptotic cells (Ba/F3 EML4-ALK; flow cytometry; concentration not given, 6 h): 10.2% and 9.05% and 9.9%

C=C1C(=O)OC2C1CCC(C)(O)C13C=CC(C)(C21)C1(C3)C(=O)OC2C3C(C)C(=O)CC3C(=C)CC(OC(C)=O)C21 (stereo not shown)
mitochondrial ROS (AML12; MitoSOX flow cytometry; concentration not given, added: palmitate/oleate): decreased

Cc1cc(NC(=O)c2cccc(NC(=O)/C(C#N)=C/C(C)(C)C)c2)ccc1Nc1nccc(-c2cccnc2)n1
reporter activity (HEK293 AP1 reporter cells; AP-1 reporter gene, inhibitor; 3 µM, 6 h, unit not given, added: PMA; reference: PMA alone): 0.86

COCCCCCNc1nc(NCCCCCCN(C)C)c2cc(NC(=O)/C=C/CN(C)C)ccc2n1
viability (MCF7; CellTiter-Glo; 25 µM, 72 h, unit not given; reference: DMSO-treated cells): 0.962 and 0.996 and 0.913

CC(C)c1ccc(N(C)c2ccc3c(c2)OCC[C@H]3CNc2cnccc2C(=O)O)cc1
IC50 (HCC78; cell growth or viability, ATP luminescence; 7 days): 0.0239 µM

C=C1C(=O)OC2C1CCC(C)(O)C13C=CC(C)(C21)C1(C3)C(=O)CC2(C(C)C)CC21 (stereo not shown)
maximum inhibition (AML12 mouse hepatocytes; lipid accumulation, Nile Red staining; maximum safe concentration, 24 h, added: palmitic acid/oleic acid): 22.6 ± 3.21%

COc1ccc(N(C2CCCCC2)S(=O)(=O)C2CC3OC2C(c2ccc(O)cc2)=C3c2ccc(O)cc2)cc1 (stereo not shown)
Emax (MCF7 3xERE-luc, steroid-deprived; ERE luciferase reporter, agonist; reference: vehicle): -7.03%

CN(C)c1ccc(-n2cc(COC(=O)[C@]3(C)C=C(C(=O)OC(C)(C)C)C(=O)CC3)nn2)cc1
pRSK/tubulin ratio (HeLa; quantitative western blot; concentration not given, 15 (unit not given), added: EGF): 0.177

COC(=O)c1cc(NC2=NC(=O)C(=Cc3ccc(C)cc3)S2)ccc1OC(C)=O
metabolite level (MCF7; GC-MS, refers to: Spermine; 1 µM; reference: DMSO): 0.03 fold change

CCN(CC)CC(=O)Nc1cccc(-n2cc(-c3ccc4ccc(-c5cn(-c6cccc(NC(=O)CN(CC)CC)c6)nn5)cc4c3)nn2)c1
fold regulation (RCC4; PCR angiogenesis array, refers to: KDR; 5 x IC50, 2 h, normoxia; reference: untreated): 1.02

CCCCN1C(=O)c2cccc3c(NCCCCCCCCCCN4CCOCC4)ccc(c23)C1=O
emission blue shift in ER (BHK-21; confocal lambda scanning; reference: water): 21 nm

OC[C@@H]1[C@@H](O)[C@H](O)[C@@H](O)CN1CCCCCOCc1ccc(-c2ccccc2)cc1C(F)(F)F
IC50 (GBA1 R534H; inhibitor, 4MU-β-D-glucopyranoside; added: 4MU-β-D-glucopyranoside): 0.2 µM

CCCCCCCC(=O)[O][Pt]([Cl])([Cl])[O]C(=O)CCCCCCC.N.N
IC50 fold reduction (A549/DDP cisplatin-resistant; added: survivin siRNA transfection; reference: non-transfected over transfected): 4.5 fold

CCNc1cc2c(cc1C)C1(c3cc(C)c(NCC)cc3O2)c2ccccc2C(=O)N1N=Cc1c[c-]c(-c2ccccn2)cc1.Cc1c(C)c(-c2ccc(-c3ccccc3)cc2)[c-](C)c1C.[Cl-].[Ir+3]
late apoptotic cells (A549; annexin V-FITC/PI flow cytometry; 0.5 x IC50, 24 h): 10.8 ± 0.27%

Cc1ncsc1-c1ccc(C(C)NC(=O)C2CC(O)CN2C(=O)C(NC(=O)CCCCCCCCCCN2CCCC(Nc3ncc(Cl)c(Nc4ccccc4S(=O)(=O)C(C)C)n3)C2)C(C)(C)C)cc1 (stereo not shown)
log2 fold change (22Rv1; RNA-seq, refers to: ZBTB48 mRNA; concentration not given; reference: DMSO): -1.59

CC(C)C[C@H](NC(=O)[C@H](Cc1ccccc1)NC(=O)[C@H](CCCNC(=N)N)NC(=O)[C@H](C)N)B(O)O
growth inhibition (MM1.S; CellTiter-Glo; concentration not given, single agent, higher doses): 100%

Cc1ccc(-n2cc(CSc3nc4ccccc4n3Cc3cn(-c4ccc(C)cc4)nn3)nn2)cc1
viability (MDA-MB-231; MTT; 31.3 ppm): 14.8%

For quick reference, copied from above:
CCCCN1C(=O)c2cccc3c(NCCCCCCCCCCN4CCOCC4)ccc(c23)C1=O
emission blue shift in ER (BHK-21; confocal lambda scanning; reference: water): 21 nm

OC[C@@H]1[C@@H](O)[C@H](O)[C@@H](O)CN1CCCCCOCc1ccc(-c2ccccc2)cc1C(F)(F)F
IC50 (GBA1 R534H; inhibitor, 4MU-β-D-glucopyranoside; added: 4MU-β-D-glucopyranoside): 0.2 µM

CCCCCCCC(=O)[O][Pt]([Cl])([Cl])[O]C(=O)CCCCCCC.N.N
IC50 fold reduction (A549/DDP cisplatin-resistant; added: survivin siRNA transfection; reference: non-transfected over transfected): 4.5 fold

CCNc1cc2c(cc1C)C1(c3cc(C)c(NCC)cc3O2)c2ccccc2C(=O)N1N=Cc1c[c-]c(-c2ccccn2)cc1.Cc1c(C)c(-c2ccc(-c3ccccc3)cc2)[c-](C)c1C.[Cl-].[Ir+3]
late apoptotic cells (A549; annexin V-FITC/PI flow cytometry; 0.5 x IC50, 24 h): 10.8 ± 0.27%

Cc1ncsc1-c1ccc(C(C)NC(=O)C2CC(O)CN2C(=O)C(NC(=O)CCCCCCCCCCN2CCCC(Nc3ncc(Cl)c(Nc4ccccc4S(=O)(=O)C(C)C)n3)C2)C(C)(C)C)cc1 (stereo not shown)
log2 fold change (22Rv1; RNA-seq, refers to: ZBTB48 mRNA; concentration not given; reference: DMSO): -1.59

CC(C)C[C@H](NC(=O)[C@H](Cc1ccccc1)NC(=O)[C@H](CCCNC(=N)N)NC(=O)[C@H](C)N)B(O)O
growth inhibition (MM1.S; CellTiter-Glo; concentration not given, single agent, higher doses): 100%
